Measurements pooled from the literature.
Lines come from different studies, so protocols differ. Values joined by “and” are separate records of one study, mostly repeats; a detail may differ. ± marks the error that the study gave.
FAAH: Fatty-acid amide hydrolase 1 (FAAH, Homo sapiens, UniProt O00519)
Sequence of UniProt O00519 (whole entry, looked up): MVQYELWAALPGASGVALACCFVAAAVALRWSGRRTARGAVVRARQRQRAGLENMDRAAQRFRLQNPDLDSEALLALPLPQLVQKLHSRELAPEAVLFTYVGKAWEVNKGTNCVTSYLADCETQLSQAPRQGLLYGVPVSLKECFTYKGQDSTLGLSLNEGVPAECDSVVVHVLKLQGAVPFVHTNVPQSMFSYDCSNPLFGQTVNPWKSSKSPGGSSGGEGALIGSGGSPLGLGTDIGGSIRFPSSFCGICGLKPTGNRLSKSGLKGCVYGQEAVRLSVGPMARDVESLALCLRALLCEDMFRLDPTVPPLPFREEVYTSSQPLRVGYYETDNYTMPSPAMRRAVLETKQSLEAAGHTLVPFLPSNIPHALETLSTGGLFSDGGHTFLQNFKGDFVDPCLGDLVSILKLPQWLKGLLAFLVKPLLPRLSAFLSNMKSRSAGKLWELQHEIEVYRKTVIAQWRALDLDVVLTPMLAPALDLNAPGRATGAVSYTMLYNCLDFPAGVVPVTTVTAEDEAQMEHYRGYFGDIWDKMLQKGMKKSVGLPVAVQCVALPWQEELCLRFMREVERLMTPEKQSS
PARP1: Poly [ADP-ribose] polymerase 1 (PARP1, Homo sapiens, UniProt P09874)
Sequence of UniProt P09874 (whole entry, looked up): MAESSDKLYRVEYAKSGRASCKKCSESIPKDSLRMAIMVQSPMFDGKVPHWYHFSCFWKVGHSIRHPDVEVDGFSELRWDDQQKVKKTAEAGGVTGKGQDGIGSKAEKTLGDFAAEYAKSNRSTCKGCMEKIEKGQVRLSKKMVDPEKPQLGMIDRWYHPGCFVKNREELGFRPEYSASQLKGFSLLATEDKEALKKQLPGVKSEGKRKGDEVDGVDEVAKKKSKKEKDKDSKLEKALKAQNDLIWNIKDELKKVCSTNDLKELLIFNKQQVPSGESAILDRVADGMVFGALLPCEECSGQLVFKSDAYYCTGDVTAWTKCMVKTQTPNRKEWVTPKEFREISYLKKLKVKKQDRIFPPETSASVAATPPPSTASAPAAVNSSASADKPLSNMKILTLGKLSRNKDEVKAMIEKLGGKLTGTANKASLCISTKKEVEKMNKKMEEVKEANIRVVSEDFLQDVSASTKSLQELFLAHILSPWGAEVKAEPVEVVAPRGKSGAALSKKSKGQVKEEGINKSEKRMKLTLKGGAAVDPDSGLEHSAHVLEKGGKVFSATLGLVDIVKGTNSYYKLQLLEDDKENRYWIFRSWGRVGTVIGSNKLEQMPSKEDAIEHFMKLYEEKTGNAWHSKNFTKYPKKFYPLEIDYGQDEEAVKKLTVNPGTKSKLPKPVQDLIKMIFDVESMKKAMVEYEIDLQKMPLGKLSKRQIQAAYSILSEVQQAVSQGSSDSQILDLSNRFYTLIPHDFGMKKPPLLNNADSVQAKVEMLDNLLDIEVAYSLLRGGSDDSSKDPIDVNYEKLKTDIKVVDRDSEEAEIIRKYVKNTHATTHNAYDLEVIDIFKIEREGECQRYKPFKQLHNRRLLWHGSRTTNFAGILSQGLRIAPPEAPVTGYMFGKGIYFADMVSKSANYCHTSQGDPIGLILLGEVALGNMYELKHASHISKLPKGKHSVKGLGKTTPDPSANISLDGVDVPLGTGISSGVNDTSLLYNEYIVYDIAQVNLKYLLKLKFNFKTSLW
Sequence of UniProt Q7Z2W7 (whole entry, looked up): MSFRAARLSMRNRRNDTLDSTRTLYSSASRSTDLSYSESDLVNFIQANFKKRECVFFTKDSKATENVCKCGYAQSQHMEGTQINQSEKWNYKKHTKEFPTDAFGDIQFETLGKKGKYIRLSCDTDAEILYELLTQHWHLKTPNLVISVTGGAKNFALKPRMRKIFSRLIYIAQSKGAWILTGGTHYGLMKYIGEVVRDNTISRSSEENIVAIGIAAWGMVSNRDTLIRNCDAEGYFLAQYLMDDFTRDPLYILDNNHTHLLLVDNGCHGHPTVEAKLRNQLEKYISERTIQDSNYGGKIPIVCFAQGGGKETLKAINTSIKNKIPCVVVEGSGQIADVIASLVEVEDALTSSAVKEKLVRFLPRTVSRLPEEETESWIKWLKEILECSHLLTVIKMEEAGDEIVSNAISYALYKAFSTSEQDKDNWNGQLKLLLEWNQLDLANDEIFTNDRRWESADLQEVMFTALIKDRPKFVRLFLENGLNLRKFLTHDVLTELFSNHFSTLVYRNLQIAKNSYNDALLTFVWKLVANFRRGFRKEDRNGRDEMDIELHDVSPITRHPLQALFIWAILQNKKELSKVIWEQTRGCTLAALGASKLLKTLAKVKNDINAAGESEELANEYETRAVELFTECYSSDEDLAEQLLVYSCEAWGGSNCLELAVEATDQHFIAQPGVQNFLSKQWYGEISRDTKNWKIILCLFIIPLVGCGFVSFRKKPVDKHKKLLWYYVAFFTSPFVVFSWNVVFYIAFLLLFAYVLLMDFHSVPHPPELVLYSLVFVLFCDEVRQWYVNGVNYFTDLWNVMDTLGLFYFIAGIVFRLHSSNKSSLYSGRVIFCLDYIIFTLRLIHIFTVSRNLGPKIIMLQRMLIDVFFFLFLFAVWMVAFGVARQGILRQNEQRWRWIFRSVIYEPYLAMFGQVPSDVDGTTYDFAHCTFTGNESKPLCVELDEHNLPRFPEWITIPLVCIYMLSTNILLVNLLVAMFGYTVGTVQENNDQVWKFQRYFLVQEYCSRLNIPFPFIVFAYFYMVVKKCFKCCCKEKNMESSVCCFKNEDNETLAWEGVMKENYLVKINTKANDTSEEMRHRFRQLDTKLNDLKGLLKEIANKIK
Sequence of UniProt P23919 (whole entry, looked up): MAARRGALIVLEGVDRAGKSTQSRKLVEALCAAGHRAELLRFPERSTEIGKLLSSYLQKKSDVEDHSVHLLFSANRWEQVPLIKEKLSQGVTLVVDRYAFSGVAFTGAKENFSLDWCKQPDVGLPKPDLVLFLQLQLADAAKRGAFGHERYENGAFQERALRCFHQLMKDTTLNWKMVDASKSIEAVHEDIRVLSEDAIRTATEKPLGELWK
Sequence of UniProt Q6PE15 (whole entry, looked up): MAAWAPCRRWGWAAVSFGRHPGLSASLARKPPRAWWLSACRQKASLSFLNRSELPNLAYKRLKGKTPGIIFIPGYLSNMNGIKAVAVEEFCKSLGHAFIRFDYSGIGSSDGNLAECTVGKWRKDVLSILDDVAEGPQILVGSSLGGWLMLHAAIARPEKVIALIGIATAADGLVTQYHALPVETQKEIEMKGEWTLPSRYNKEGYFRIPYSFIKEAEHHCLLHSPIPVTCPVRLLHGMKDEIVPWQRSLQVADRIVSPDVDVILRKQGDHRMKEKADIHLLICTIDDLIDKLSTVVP
Sequence of UniProt P04798 (whole entry, looked up): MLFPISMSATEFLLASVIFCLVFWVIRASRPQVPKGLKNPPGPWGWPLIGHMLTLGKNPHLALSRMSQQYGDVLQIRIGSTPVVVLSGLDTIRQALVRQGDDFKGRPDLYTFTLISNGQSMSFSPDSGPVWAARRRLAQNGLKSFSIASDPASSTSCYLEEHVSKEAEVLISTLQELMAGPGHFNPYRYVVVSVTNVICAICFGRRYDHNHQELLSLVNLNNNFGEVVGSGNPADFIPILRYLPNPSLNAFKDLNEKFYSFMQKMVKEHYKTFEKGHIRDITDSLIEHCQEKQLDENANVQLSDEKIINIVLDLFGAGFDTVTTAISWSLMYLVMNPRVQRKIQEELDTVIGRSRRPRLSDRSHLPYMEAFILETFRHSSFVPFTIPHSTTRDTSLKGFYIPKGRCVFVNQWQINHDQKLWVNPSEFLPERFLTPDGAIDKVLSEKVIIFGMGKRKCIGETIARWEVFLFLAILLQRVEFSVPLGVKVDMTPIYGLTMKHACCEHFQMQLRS
Sequence of UniProt Q96JM7 (whole entry, looked up): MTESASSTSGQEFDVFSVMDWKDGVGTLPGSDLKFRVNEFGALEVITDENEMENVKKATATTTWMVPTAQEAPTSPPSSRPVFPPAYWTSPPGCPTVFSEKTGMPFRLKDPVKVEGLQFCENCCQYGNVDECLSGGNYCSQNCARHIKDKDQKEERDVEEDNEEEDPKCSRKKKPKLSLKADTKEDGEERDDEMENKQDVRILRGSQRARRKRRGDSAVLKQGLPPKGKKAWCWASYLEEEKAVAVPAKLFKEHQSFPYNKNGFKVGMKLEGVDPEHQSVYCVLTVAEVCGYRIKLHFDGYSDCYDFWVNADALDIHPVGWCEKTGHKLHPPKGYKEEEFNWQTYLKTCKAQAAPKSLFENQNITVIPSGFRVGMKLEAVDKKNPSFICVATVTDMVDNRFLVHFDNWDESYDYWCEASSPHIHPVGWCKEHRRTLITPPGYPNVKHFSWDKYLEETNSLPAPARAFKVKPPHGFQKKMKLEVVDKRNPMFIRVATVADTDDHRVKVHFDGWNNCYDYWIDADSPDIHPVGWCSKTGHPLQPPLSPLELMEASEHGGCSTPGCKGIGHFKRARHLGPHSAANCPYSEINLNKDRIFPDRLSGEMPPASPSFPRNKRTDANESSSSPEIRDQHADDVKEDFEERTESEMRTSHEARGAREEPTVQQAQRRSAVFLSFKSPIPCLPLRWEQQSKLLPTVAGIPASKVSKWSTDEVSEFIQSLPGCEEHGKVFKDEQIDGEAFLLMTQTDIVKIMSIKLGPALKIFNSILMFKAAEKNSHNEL
Sequence of UniProt P61073 (whole entry, looked up): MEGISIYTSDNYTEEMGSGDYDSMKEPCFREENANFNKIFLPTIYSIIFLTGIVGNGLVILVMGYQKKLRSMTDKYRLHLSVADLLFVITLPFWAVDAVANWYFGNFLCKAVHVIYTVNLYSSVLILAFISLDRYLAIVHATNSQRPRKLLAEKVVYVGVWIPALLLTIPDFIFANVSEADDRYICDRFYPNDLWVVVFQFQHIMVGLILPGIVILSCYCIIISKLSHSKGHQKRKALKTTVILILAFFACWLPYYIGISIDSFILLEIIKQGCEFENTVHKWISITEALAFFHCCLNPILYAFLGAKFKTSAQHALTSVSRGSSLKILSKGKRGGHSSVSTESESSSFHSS

Compound | tested on | assay | test system | conditions | endpoint | result
CC(C)[C@H](NC(=O)[C@@H]1CCCN1C(=O)[C@H](CCCNC(=N)N)NC(=O)[C@H](CS)NC(=O)[C@H](Cc1c[nH]c2ccccc12)NC(=O)[C@H](CCCNC(=N)N)NC(=O)[C@@H](Cc1ccccc1)NC(=O)[C@H](Cc1c[nH]cn1)NC(=O)[C@H](CCC(=O)O)NC(=O)[C@H](CS)NC(=O)[C@H](CS)NC(=O)[C@H](CCCNC(=N)N)NC(=O)[C@@H]1CC(=O)N[C@@H](CCCNC(=N)N)C(=O)N[C@@H](C)C(=O)N[C@@H](CC(=O)O)C(=O)N[C@H](Cc2ccc(O)cc2)C(=O)N1)C(N)=O [technetium-99m labelled] |  |  | C57 mouse, urinary bladder | intravenous, 0.037 MBq, 24 h | tissue uptake | 91.5 ± 1.86 %ID
CN1CCC2(CC1)c1ccccc1N(Cc1ccc(C(=O)NO)s1)C2c1ccc(Cl)cc1 (stereo not shown) | Histone deacetylase 8 (Schistosoma mansoni, UniProt A5H660) | enzyme activity, inhibitor, Fluor-de-Lys |  | varied substrate concentration, added: Fluor-de-Lys substrate 150 µM | IC50 | 0.041 ± 0.002 µM
CCCOC(=O)c1ccc(O)cc1 | FAAH | enzyme activity, inhibitor, fluorimetric |  | 5 min preincubation, recombinant enzyme, added: OMP substrate 50 µM | IC50 | 9.4 ± 1 µM
CCC1(c2ccc(C)cc2)C(=O)N(C(=O)OC(C)C)N1C(=O)OC(C)C (stereo not shown) | Palmitoyl-protein thioesterase ABHD10, mitochondrial (Mus musculus, UniProt Q6PE15) | enzyme activity, inhibitor, gel-based ABPP in situ | Neuro2A | 2 h | IC50 | 0.021 µM
O=c1cc(N2CCOCC2)oc2c(OCc3ccccc3)cccc12 | PIK3CB (Homo sapiens, UniProt P42338, D862Q) | enzyme activity, inhibitor |  |  | IC50 | 0.2 µM
C#C[C@]1(COP(=O)(O)OP(=O)(O)OP(=O)(O)O)O[C@@H](n2cnc3c(N)nc(F)nc32)C[C@@H]1O | human PBMC tumour model |  | host not given, plasma | oral, 400 mg, single dose, fasted | half-life | 160 h
Cc1ccc(S(=O)(=O)/C=C/C#N)cc1 | HeLa expressing ODD-Luc | ODD-Luc degradation, inhibitor, cycloheximide chase luciferase |  |  | IC50 | 0.6 ± 0.08 µM
O=C(O)c1ccc(S(=O)(=O)N(Cc2ccc(OC(F)(F)F)cc2)c2ncc(C(F)(F)F)cc2Cl)cc1 | TRPM8 (Homo sapiens, UniProt Q7Z2W7) | calcium signal, antagonist, fluorescence |  |  | IC50 | 0.00296 µM and 0.003 µM
CN1CCN(C[C@H]2COc3cccc(C(N)=O)c3O2)CC1 | PARP1 |  |  |  | IC50 | > 5 µM
Cl.Cl.Cl.Cl.Cl.Cl.N.N.N.N.N.N.N.N.N.N.N.N.N.N.[O-2].[O-2].[Ru+3].[Ru+3].[Ru+4] | PIEZO2 (Homo sapiens, UniProt Q9H5I5) | transporter uptake, flow cytometry |  |  | IC50 | 115 µM
CCCCC(C(=O)COc1c(F)c(F)cc(F)c1F)n1cc(C2(N)CCN(C(C)=O)CC2)nn1 (stereo not shown) | DPAP1 (Plasmodium falciparum, UniProt Q8IIJ9) | inhibitor, fluorogenic substrate | Plasmodium falciparum lysate | 30 min | IC50 | > 20 µM
Cc1ccccc1C(C(=O)NC1CCCCC1)N(C(=O)Cn1ccnc1C)c1cccc(F)c1 (stereo not shown) | IDH1 (Homo sapiens, UniProt O75874, R132H) | enzyme activity, inhibitor |  | racemic compound, added: α-ketoglutarate | IC50 | < 0.05 µM
CC[n+]1c(/C=C/N(C)c2ccccc2)n(-c2ccccc2)c2ccc(-c3nc4ccccc4s3)cc21 | HeLa expressing ODD-Luc | ODD-Luc degradation, inhibitor, cycloheximide chase luciferase |  |  | IC50 | 5 ± 0.5 µM
CC(C)[C@H](NC(=O)[C@@H]1CCCN1C(=O)[C@H](CCCNC(=N)N)NC(=O)[C@H](CS)NC(=O)[C@H](Cc1c[nH]c2ccccc12)NC(=O)[C@H](CCCNC(=N)N)NC(=O)[C@@H](Cc1ccccc1)NC(=O)[C@H](Cc1c[nH]cn1)NC(=O)[C@H](CCC(=O)O)NC(=O)[C@H](CS)NC(=O)[C@H](CS)NC(=O)[C@H](CCCCN)NC(=O)[C@@H]1CC(=O)N[C@@H](CCCNC(=N)N)C(=O)N[C@@H](C)C(=O)N[C@@H](CC(=O)O)C(=O)N[C@H](Cc2ccc(O)cc2)C(=O)N1)C(N)=O [technetium-99m labelled] |  |  | C57 mice, liver | intravenous, 0.037 MBq, 0.5 h | tissue uptake | 2.66 ± 0.17 %ID/g
O=c1[nH]c2ccccc2n1C1CCN(CCCC(c2ccc(F)cc2)c2ccc(F)cc2)CC1 | ABCC1 (Homo sapiens, UniProt P33527) | efflux, inhibitor, flow cytometry | SupT1 cells overexpressing ABCC1 | added: JC-1 500 nM | IC50 | 5.3 ± 2.6 µM
CC(C)(C)NCCCNC(=O)c1cccc(Br)c1 | Lethal(3)malignant brain tumor-like protein 3 (Homo sapiens, UniProt Q96JM7) | methyllysine binding, inhibitor, AlphaScreen |  |  | IC50 | > 500 µM
O=C(NNC(=O)c1ccc(CNS(=O)(=O)c2ccc(F)c(Cl)c2)cc1)c1ccccc1 | Glutamate NMDA receptor; Grin1/Grin2a (Grin1/Grin2a, Rattus norvegicus, UniProt P35439+Q00959, V783W) | ion current, two-electrode voltage clamp |  | oocytes | IC50 | 0.036 µM
C#Cc1ccc2c(C)c(-c3ccccc3)c(=O)oc2c1 | Cytochrome P450 1A1 (CYP1A1, Homo sapiens, UniProt P04798) | enzyme activity, inhibitor, fluorescence |  | 6 min, pH 7.6 | IC50 | 4.48 µM
C[C@]1(CO)CN(c2cc(C(=O)Nc3ccc4c(c3)-c3c(c(C(N)=O)nn3-c3ccc(F)cc3)CC4)c(Cl)cn2)C[C@@]1(C)CO | HEK293 NF-κB luciferase reporter | NF-κB reporter gene, antagonist |  | 24 h, added: TNFα 5 ng/mL | EC50 | 0.901 µM
COc1ccc2c(NC3CCNCC3)nc(NCc3ccc(CNCCCN4CCCCC4)cc3)nc2c1 | CXCR4 (Homo sapiens, UniProt P61073) | ligand displacement, radioligand |  | cell membranes | IC50 | 0.0479 µM
O=c1ccn([C@H]2C[C@H](O)[C@@H](COP(=O)(O)O)O2)c(=O)[nH]1 | Thymidylate kinase (DTYMK, Homo sapiens, UniProt P23919) | ligand displacement |  |  | IC50 | 260 µM
O=S(=O)(c1cc(C(=S)Nc2cc(F)c(F)c(F)c2)c(Cl)cc1Cl)N1CCOCC1 | LPAR4 (Homo sapiens, UniProt Q99677) | Ca2+ mobilization, antagonist | CHO | added: LPA at EC50 | IC50 | > 100 µM
CC(=O)c1ccc(NC(=O)Cn2c(=S)n(-c3ccccc3)c(=O)c3ccccc32)cc1 | PARP1 | enzyme activity |  |  | IC50 | 0.0644 µM
COc1cc(Cn2cc(COC(=O)NC3CCCCC3)nn2)cc(OC)c1 | FAAH | enzyme activity, inhibitor, fluorescence |  | cell membranes | IC50 | 0.0036 µM
CC1=C(COc2ccc(C#N)cc2)C(=O)c2ccccc2C1=O | TXNRD1 (Homo sapiens, UniProt Q16881) | enzyme activity, inhibitor |  | pH 7.4, with preincubation | IC50 | 1.5 µM

Excerpt of the above:
Compound | tested on | assay | test system | conditions | endpoint | result
C[C@]1(CO)CN(c2cc(C(=O)Nc3ccc4c(c3)-c3c(c(C(N)=O)nn3-c3ccc(F)cc3)CC4)c(Cl)cn2)C[C@@]1(C)CO | HEK293 NF-κB luciferase reporter | NF-κB reporter gene, antagonist |  | 24 h, added: TNFα 5 ng/mL | EC50 | 0.901 µM
COc1ccc2c(NC3CCNCC3)nc(NCc3ccc(CNCCCN4CCCCC4)cc3)nc2c1 | CXCR4 (Homo sapiens, UniProt P61073) | ligand displacement, radioligand |  | cell membranes | IC50 | 0.0479 µM
O=c1ccn([C@H]2C[C@H](O)[C@@H](COP(=O)(O)O)O2)c(=O)[nH]1 | Thymidylate kinase (DTYMK, Homo sapiens, UniProt P23919) | ligand displacement |  |  | IC50 | 260 µM
